Published values pooled from the literature.
Each numbered part is a random draw from the data of one study; scales do not carry over between parts. Changes are numbered by the printed parent chain.

Study 1
Target: ABI1, truncated, D143A, DHFR fusion (Arabidopsis thaliana)
Method: DHFR PCA, deep sequencing
Medium: yeast
Setting: methotrexate growth selection, single substitutions
With: (+)-ABA 0 µM
Relative to: wild-type fitted maximum
Direction: higher = stronger binding
Starting sequence: PYL1, truncated, DHFR fusion (Arabidopsis thaliana); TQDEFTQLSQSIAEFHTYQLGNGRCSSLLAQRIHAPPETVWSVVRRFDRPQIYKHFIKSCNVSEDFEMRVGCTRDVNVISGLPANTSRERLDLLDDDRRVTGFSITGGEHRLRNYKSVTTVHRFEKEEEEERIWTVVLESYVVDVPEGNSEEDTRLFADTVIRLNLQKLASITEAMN; partner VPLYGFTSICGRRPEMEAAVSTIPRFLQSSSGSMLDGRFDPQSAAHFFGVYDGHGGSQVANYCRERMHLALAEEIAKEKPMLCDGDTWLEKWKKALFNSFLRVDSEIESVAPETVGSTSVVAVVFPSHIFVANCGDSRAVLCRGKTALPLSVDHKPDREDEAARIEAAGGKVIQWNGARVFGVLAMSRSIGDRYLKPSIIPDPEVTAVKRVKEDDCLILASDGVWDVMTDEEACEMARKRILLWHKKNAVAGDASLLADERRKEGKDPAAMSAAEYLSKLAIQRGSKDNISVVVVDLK
Change | relative binding score [%]
V76E | 0.558
L166P | 11.7
K126T | 49
A158V | 48.4
V142H | -5.41
R132K | 44.3
E174G | -3.25
E67W | 1.59
V136E | -20.9
D3V | 7.43
P36V | -0.681
E129D | 43.9
N114T | 1.24
R74Y | -1.75
L93N | 8.93

Study 2
Target: CCNA2, cyclin fold, Cln2 fusion (human)
Method: yeast growth competition, sequencing
Medium: yeast
Setting: strong parent motif
Relative to: not given
Direction: higher = stronger binding
Starting sequence: RBL2 docking peptide (human); STTRRRLFVENDS; partner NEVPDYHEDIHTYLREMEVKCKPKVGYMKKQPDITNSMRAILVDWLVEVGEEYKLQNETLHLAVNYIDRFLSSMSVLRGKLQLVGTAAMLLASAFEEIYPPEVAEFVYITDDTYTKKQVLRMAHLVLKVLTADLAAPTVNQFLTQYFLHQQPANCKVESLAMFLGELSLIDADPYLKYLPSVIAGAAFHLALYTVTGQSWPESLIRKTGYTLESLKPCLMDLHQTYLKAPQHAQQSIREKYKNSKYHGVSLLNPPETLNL
Change | normalised enrichment score
R5S | 0.583
F8W | 2.5
S13L | 6.04
T2R | 6.14
N11H | 5.49
S13E | 5.83
R6E | 3.12
S1C | 6.2
F8K | 0.891
V9Y | 6.34
E10D | 6.66
T3V | 6.98
S1F | 4.76
T3N | 0.516
R5M | 0.908
R5E | 0.016
R4V | 2.27
T2D | 3.3
S1E | 3.74
T2W | 5.03
R4L | 0.53
T3H | 3.42
L7Y | 0.683
N11W | 5.59
D12K | 5.85

Study 3
Target: Ras GTPase-activating protein-binding protein 1, C-terminal RGG region (G3BP1, Homo sapiens, UniProt Q13283)
UniProt Q13283, sequence (whole entry, looked up): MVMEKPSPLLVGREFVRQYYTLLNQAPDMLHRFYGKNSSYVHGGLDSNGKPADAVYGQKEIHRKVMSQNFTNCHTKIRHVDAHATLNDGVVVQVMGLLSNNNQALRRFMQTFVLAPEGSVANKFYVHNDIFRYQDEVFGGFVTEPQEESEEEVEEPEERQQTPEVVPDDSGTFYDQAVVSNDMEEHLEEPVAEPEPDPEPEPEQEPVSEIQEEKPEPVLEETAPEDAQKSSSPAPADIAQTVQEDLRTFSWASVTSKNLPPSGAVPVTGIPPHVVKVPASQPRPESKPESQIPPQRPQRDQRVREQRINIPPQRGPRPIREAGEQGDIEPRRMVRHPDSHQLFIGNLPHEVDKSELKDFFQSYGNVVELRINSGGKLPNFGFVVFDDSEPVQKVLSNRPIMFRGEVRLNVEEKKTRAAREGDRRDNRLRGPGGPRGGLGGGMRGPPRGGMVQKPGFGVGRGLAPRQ
Method: RNA Bind-n-Seq
Molecule type: RNA
Medium: in vitro
Tested at: 1 µM
Setting: whole 134-nt RNA, ends assumed
With: 150 mM KCl
Relative to: input library
Direction: higher = stronger binding
Shared flanks, not repeated: GGGAGUUCUACAGUCCGACGAUC … UGGAAUUCUCGGGUGUCAAGG
Sequence | log2 enrichment
UACAUUCUUUACCCCUUGUUUUAAUUUGAACCCCACCAUAUGGAUUUUUUUCCUUAAGAAAAUCUCCUUUUAGGAGAUCAUGGUGUCACA | -0.764
CAAGUCCUGUGCUACACAUCGUAUGUACCGAAUCGGUUUUGGUUUUGGUUUUGGGGAAAGUAUUAUGUUACGCCGUUCGGAUCUGCACUU | -1.59
UAACUUUAGAGGAGGAUAUGAUGGAUAUGGCAGUGGACGUGGAUUUGGGGAUGGCUAUAAUGGGUAUGGAGGAGGACCUGGAGGUGGCAA | -1.65
AAGUCCUGUGCUACACAUCGUAUGUACCGAAUCGGGGAAAAGGAAAAGGGAAAAGGAAAGUAUUAUGUUACGCCGUUCGGAUCUGCACUU | -1.83
AAGUCCUGUGCUACACAUCGUAUGUACCGAAUCGGGAGGGAAAAAAAGGGUUUGGGAAAGUAUUAUGUUACGCCGUUCGGAUCUGCACUU | 0.64
UCCUGUGCUACACAUCGUAUGUACCGAAUCGGGCCCCCCGGGCCCCCCGGCCCCCCGGGAAAGUAUUAUGUUACGCCGUUCGGAUCUGCA | -1.51
UAACUUUAGAGGAGGAUCUGAUGGAUAUGGCAGUGGACGUGGAUUUGGGGAUGGCUAUAAUGGGUAUGGAGGAGGACCUGGAUGUGGCAA | -1.08
ACCAUGCAGGGGGGCAUCUUUGGGAAGUGGGGCAAGGGGGGGAUAGGGAGGGGGGUAACACUUUGGGAACAGGUGGUCCCAGGUCGUUUC | -1.15
CUCAAGUCCUGUGCUACACAUCGUAUGUACCGAAUCGGAAAAAGGUUUGGAGGAAAGUAUUAUGUUACGCCGUUCGGAUCUGCACUUCCA | -1.34
AGUCCUGUGCUACACAUCGUAUGUACCGAAUCGGCCCCCGGGCCCCCGGCCCCCGGGAAAGUAUUAUGUUACGCCGUUCGGAUCUGCACU | -1.78
CUCAAGUCCUGUGCUACACAUCGUAUGUACCGAAUCGGUGGAGGAAAAAAAGGAAAGUAUUAUGUUACGCCGUUCGGAUCUGCACUUCCA | -1.33
GUCCUGUGCUACACAUCGUAUGUACCGAAUCGGGGAAAAGGGGAAAAGGGGAAAAGGGGAAAGUAUUAUGUUACGCCGUUCGGAUCUGCA | 2.11
CAAGUCCUGUGCUACACAUCGUAUGUACCGAAUCAAACCCAAACCCAAACCCAAAAAAGUAUUAUGUUACGCCGUUCGGAUCUGCACUUC | -0.866
AAUGUGUCCUCCCUGUCCAAAUUGGGAAUGACUUAAUGUCAAUUUGUUUGUUGGUUGUUUUAAUAAUACUUCCUUAUGUAGCCAUUAAGA | -0.762

Study 4
Target: CEBPB, bZIP domain (human)
Method: DHFR protein complementation
Medium: yeast
Setting: single substitutions, most at no-binding floor
Relative to: wild-type JUN-FOS pair
Direction: higher = stronger binding
Starting sequence: JUN, bZIP domain (human); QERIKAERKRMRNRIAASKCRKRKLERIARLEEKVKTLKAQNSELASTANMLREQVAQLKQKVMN; partner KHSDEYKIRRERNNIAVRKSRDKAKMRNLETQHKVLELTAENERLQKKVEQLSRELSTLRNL
Change | binding fitness [natural log]
A40T | -1.36
L45R | -1.44
Q55E | -1.35
K36R | -1.12
L38T | -1.5
R30M | -1.2
T37N | -1.24
E32G | -1.43
S43K | -1.11
V56F | -1.54
L38D | -1.4
R30T | -1.08
E44H | -1.42
A49Q | -1.38

Study 5
Target: RING finger protein unkempt homolog, zinc fingers 1-6, GST-SBP tag (UNK, Homo sapiens, UniProt Q9C0B0, residues 30-357)
UniProt Q9C0B0, sequence (30-357, looked up): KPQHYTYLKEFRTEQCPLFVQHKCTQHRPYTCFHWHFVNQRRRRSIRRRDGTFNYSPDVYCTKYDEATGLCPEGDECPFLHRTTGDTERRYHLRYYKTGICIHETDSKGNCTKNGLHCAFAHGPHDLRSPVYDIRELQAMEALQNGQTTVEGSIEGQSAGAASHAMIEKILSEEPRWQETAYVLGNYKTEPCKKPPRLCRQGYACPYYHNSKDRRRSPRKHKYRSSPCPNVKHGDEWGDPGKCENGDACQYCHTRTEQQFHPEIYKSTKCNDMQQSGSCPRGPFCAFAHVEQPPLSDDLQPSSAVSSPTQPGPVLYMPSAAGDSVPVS
Method: RNA Bind-n-Seq
Molecule type: RNA
Medium: in vitro
Tested at: not given
Setting: RNA with constant flanks, human and mouse sites, ends assumed
Relative to: input RNA pool
Direction: higher = stronger binding
Shared flanks, not repeated: GGGAGUUCUACAGUCCGACGAUC … CAACAGAGGAUUGAGCAUCA
Sequence | bound/input enrichment [ratio]
GAACAAUUUAAAUUAAUCCAAGCAGCAUAUGAUGUGUUGAGUGACCCUCAGGAAAGAGCAUGGUAUGAUAAUCAUAGAGAGGCCCUACUUAAAGGUGGGUUUGAUGGCGAAUAUCAAGAU | 0.535
AGACAUCAGAUUAAAUCAAGUUCAAAUAUUCCCUGUGUCCCCAAAGACUUACUGAUGAUGUCUGAAUUUGUUCUUCCAAGAUUCAUUUUUUGUCUUAUUCAGUACUUAAGAGAAGGCUAU | 0.216
AUCCAGGCAGCAGACAGCACAGCUGUGAAUGGCAGCAUUACACCCACAGACAAAAAGAUAGGAUUUUUGGGCCUUGGCUUAAUGGGAAGUGGCAUCGUCUCCAACUUGCUAAAAAUGGGU | 0.411
ACAUUUUUAUGGUCUCCUAUGCCUGAACAUUAUGUGGAAGGAUCAACAGUCAAUUGUGUACUAGCAUUUCAAGGAUAUUACCUUCCAAAUGAUGAUGGAGAAUUUUAUCAGUUCUGUUAC | 0.154
CAUUGUAUGUUGAUGAGUUGAUUAAGUCUAACAGAUUCAUCAAGACUCCAUUGCUUUAUUAUAGAGACAUUUGAAAAUAUCCAUUAAUGUGAAUAUCACCUGAAUUCAGUCUGUUUGGUG | 2.83
UCCAAGGGGUCGGAGUCUGAAAGGGGAAAGCUACGAGGAGGGGACAGAGACUGGAGAGAAACGGAAUCACAGACACACAUUUUGUUUAAAUGGUCUAAACUGCCUGUUUGGUGGCAUUUA | 0.36
UUAGCAUGCUGUAUGCCUCCCUCGUACAGUACAUCAGUUUACACUCUGAAGGCGUUCUAGAAUAGUGUUGCCUAGUUUAAGGAAAGGGUAUUACAGUGUUCUUCACAACUUAAGAAUUUU | 0.233
AAUAAACAGGAUAUGAAAGGGUGUAUGACAGCAGCUGAAAUCUCGAAAUACCUCACCCUUAGUUCAAUUAAGGAUCAUCCAUGGCACAUUCAAUCCUGCUGUGCUCUCACAGGAGAAGGG | 0.22
UUCACCGCCUUGGAGGAUUUUGUUCAGCACAAGAUUCAGAAGGCCUGCCAGCGGGCCCCUCCGGAGGCCCUGCCUGCCACCCCUGCCACCACAGCGUUGCUGGGCCAGGAGGUGGUGCCG | 0.168
UCCUUUGAAGGGAUUGGUGGCAAUCAAGACAAAGUGGACUGGUGUAACCCUGGGAUGGGAAAUCCCAUGAUUCACAGGCCAAUGUCUGACCCAGGAGUGUUUUCACAGCAUCAAGCAAUG | 0.114
GUUGCAUUUACAACAAGAAUUUAUCAUCCAAAUAUUAACAGUAAUGGCAGCAUUUGUCUUGAUAUUCUACGAUCACAGUGGUCUCCAGCACUAACUAUUUCAAAAGUACUCUUGUCCAUC | 0.178

Study 6
Target: Histone acetyltransferase KAT6A, both winged helices, GST fusion (KAT6A, Homo sapiens, UniProt Q92794, residues 1-181)
Method: protein binding microarray
Molecule type: double-stranded DNA, one strand shown
Medium: in vitro
Tested at: not given
Setting: 8-mer, flanks averaged, mean of 2 arrays, mostly near background
Relative to: not given
Direction: higher = stronger binding
Construct (chain): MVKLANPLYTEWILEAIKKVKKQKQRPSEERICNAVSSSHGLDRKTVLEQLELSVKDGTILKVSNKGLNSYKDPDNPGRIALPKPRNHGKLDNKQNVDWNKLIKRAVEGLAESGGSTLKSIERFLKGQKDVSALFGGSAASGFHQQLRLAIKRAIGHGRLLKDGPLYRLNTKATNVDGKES
Sequence | E-score
GTCGTTTA | 0.127
CACAATCA | -0.117
CTATGCAG | -0.0613
ACTAGCCT | -0.195
AAGGACTG | -0.172
AACACTCC | -0.0422
ACAGACTG | -0.0411
AACGCTAG | -0.0413
ACCACCTG | -0.187
AGGGTTGA | -0.192
CAAATGGG | -0.247
ACACAGAG | -0.0492
CAATCGCC | 0.0984
AAGCAAGC | -0.0399
CCAATGAA | -0.119
AACCAGAA | -0.105
GCTGCCGA | 0.155
ACACGTCT | -0.0335
AGGCAATG | -0.241
GTGCCCCA | -0.143
CGGTGTTC | 0.234
TGAGGCAA | -0.137
CAGGGAAA | -0.0127
TCTATGCA | -0.161
AGTGTCTA | -0.0318

Some of these lines once more (study 5):
Sequence | bound/input enrichment [ratio]
GAACAAUUUAAAUUAAUCCAAGCAGCAUAUGAUGUGUUGAGUGACCCUCAGGAAAGAGCAUGGUAUGAUAAUCAUAGAGAGGCCCUACUUAAAGGUGGGUUUGAUGGCGAAUAUCAAGAU | 0.535
AGACAUCAGAUUAAAUCAAGUUCAAAUAUUCCCUGUGUCCCCAAAGACUUACUGAUGAUGUCUGAAUUUGUUCUUCCAAGAUUCAUUUUUUGUCUUAUUCAGUACUUAAGAGAAGGCUAU | 0.216
AUCCAGGCAGCAGACAGCACAGCUGUGAAUGGCAGCAUUACACCCACAGACAAAAAGAUAGGAUUUUUGGGCCUUGGCUUAAUGGGAAGUGGCAUCGUCUCCAACUUGCUAAAAAUGGGU | 0.411
ACAUUUUUAUGGUCUCCUAUGCCUGAACAUUAUGUGGAAGGAUCAACAGUCAAUUGUGUACUAGCAUUUCAAGGAUAUUACCUUCCAAAUGAUGAUGGAGAAUUUUAUCAGUUCUGUUAC | 0.154
CAUUGUAUGUUGAUGAGUUGAUUAAGUCUAACAGAUUCAUCAAGACUCCAUUGCUUUAUUAUAGAGACAUUUGAAAAUAUCCAUUAAUGUGAAUAUCACCUGAAUUCAGUCUGUUUGGUG | 2.83
UCCAAGGGGUCGGAGUCUGAAAGGGGAAAGCUACGAGGAGGGGACAGAGACUGGAGAGAAACGGAAUCACAGACACACAUUUUGUUUAAAUGGUCUAAACUGCCUGUUUGGUGGCAUUUA | 0.36
UUAGCAUGCUGUAUGCCUCCCUCGUACAGUACAUCAGUUUACACUCUGAAGGCGUUCUAGAAUAGUGUUGCCUAGUUUAAGGAAAGGGUAUUACAGUGUUCUUCACAACUUAAGAAUUUU | 0.233
AAUAAACAGGAUAUGAAAGGGUGUAUGACAGCAGCUGAAAUCUCGAAAUACCUCACCCUUAGUUCAAUUAAGGAUCAUCCAUGGCACAUUCAAUCCUGCUGUGCUCUCACAGGAGAAGGG | 0.22
